# Published values gathered from unrelated publications.
# Every numbered part comes from another study and shows a few of its results, in no order. Substitutions count along the parent as printed.

# Set 1 — target: CCNB2, cyclin fold, Cln2 fusion (human); method: yeast growth competition, sequencing; medium: yeast; setting: weak parent motif; reference: not given; direction: higher = stronger binding
# Starting sequence: CDKN1B docking peptide (human); PSACRNLFGPVDH
Variant,normalised enrichment score
PSACRNLFGPLDH [V11L],-0.0233
PSACRNLFGPTDH [V11T],-0.0952
PSACRNLLGPVDH [F8L],0.0163
PSACKNLLGPVDH [R5K F8L],-0.0244
PSACRNHFGPVDH [L7H],0.292
PSACRNLFQPVDH [G9Q],0.149
PSACRNLAGPVDH [F8A],-0.0651
PSACMNLFGPVDH [R5M],-0.331

# Set 2 — method: RNA Bind-n-Seq; molecule type: RNA; medium: in vitro; concentration: 365 nM; reference: no-protein control; direction: higher = stronger binding
# Target: RNA binding protein fox-1 homolog 2, RRM domain, GST-SBP tag (RBFOX2, Homo sapiens, UniProt O43251-10, residues 100-194)
# Setting: natural RNA segment, single round, ends assumed
# Constant ends, left off below: GGGAGUUCUACAGUCCGACGAUC … UGGAAUUCUCGGGUGCCAA
# Construct (chain): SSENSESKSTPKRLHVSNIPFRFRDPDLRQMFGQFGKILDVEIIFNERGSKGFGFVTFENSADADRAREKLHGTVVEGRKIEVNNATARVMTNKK
Sequence,RBNS enrichment (R)
UUUGUUUCAAUUCUAAGAAACACUUGCAGCUCUAGUAUUCACUUGAGUCUUCCUGUUUUUCCUGUACCGGGUCAUGGUAAUUUUUGGUUGUUUUGGUUGUUUUCUUAAAA,0.56
GUGGUUACUUUUUAUAAUGUGAAAUGGAUAAUGAGCGUAUUUAAAAUAAAGCAGAGGUUAAUGAGAUACCUGUAUUUGUGAGAAAAAUUUUAAAUACUUUCCUACAGUUC,0.739
UUAUUUUUAAUAUUAUUUUAUUUGUGUCUGUGUACAUAUUCAUGUAUAAAUUUUAUGAAACCCAAGCAUAGUGCUUAUUUUUUAAUAAAACAACUGACUUAACACAUUGU,0.69
AGAGCUAAACAUGAGUUUAGACACACAAGAUUCUAAAAUGCAAAUGUUUAUUUUGAAGCAGGCAUUGACAACACAAAAACUGUGUAGUGGUCUUGAUGCUGGAUUGUUUC,0.377
CAAAAACAACAAAGAUAAAAUCAAUUUGGAGCUUUAUAUGACAAAAAGGAAGAAGUCCAAAAAUAUAUAGCCUUCCCCCCUCCCACAUAUCUGAUCCAAAUAUUAAAUAU,0.535
UUUGUUUGGUUUUUUAAGAAGAAUUUAUAUCCGGGUUUAGUGUUUAUCAUAUAUAUGGGUACUCUGUAAUAUCUAAAAGCUUAGAAAUGGGAUCUUGCUCACAAGAAUCA,0.99
UUUGAAACCAGUCUGCACUACAUGAGGCUUUGUCUCAAAAUGAAAAAGUUUGAGAUUAUCCUAGGCUACAUAGCAAGGUGAUUUCAAGAAAGAGAUGAAGGAAGGAAGGA,0.407
GAGUGCAGUGAGUGAGAGUCCUUGGGAGCGCGGCGCUGCCUGUAGCUGUGCCUGGGGAUGCACGUGGCCACGGGAUUUCAGUGGGACAGCGCUCCCACAGGGGCUGGGGG,3.44
UGCUUGAGUACCAUGUGGCCAGGCCUAUGUGGAUGGCUACUCCGUGCUGUGCGGCUUCACCAGCGGUUGGGAUUGGCCCAGCUUGGAGUGCUUGUGUGGUCCAACCUCAG,1.22
AGUGGGCUACUAGAGACCUCUGACCCCAGCAGCACUGGCUUGCCCUCAUAUGUGGGGUGUAGUCACGUCAGUGACUUCCUGGGAAUUGCUUGUUUCAGAUCAUAUUGAUC,6.83
CGUACCUUGGAUAAGGGGCCUCACUUGAACCCAUCUUGAAUACCCUUUGCCAGGUGCUUAUUUAAGUACAAAUCCUUUUCAAAGGACUCUAGUGUUCAGUUGUUGAUGUG,0.227
GCCGCAGUGGGGUCAAGCUGAGCUGGCUUCGGAGAUGGAGUCCCUUUUCAUUCUCCUCCUCCUCCCUCCUCACUCCCUAGGCCCAAGUCUCCUAGGGGCUUGGUCCUAGG,0.403

# Set 3 — method: protein binding microarray; molecule type: double-stranded DNA, one strand shown; medium: in vitro; concentration: not given; reference: not given; direction: higher = stronger binding
# Target: Histone acetyltransferase KAT6A, winged helix 2, GST fusion (KAT6A, Homo sapiens, UniProt Q92794, residues 85-181)
# Setting: 8-mer, flanks averaged, mean of 2 arrays, mostly near background
# Residues (chain): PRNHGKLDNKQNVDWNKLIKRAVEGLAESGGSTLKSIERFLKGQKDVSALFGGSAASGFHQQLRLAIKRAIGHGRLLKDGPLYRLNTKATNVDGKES
Sequence,E-score
AACTGTGC,-0.00226
CCTGTGTC,-0.0588
TCCGGACA,-0.0073
ACGTGTTG,0.0558
CATACCCG,-0.0514
CTTCAACC,-0.0442
CCAGGCAG,0.111
AATACGGA,-0.0594
ATAAGCGG,-0.0283
TTAATCAA,0.0639

# Other studies, line by line
Substance,target,assay,test system,conditions,how to read,measurement,result
"PhoQ, residues 284 288 289 292 302 303 SCKMEA","PhoP, residues 12 14 15 18 19 TPLRH (Escherichia coli, UniProt P23836)","Sort-seq, item: YFP reporter",E. coli,"PhoQ-PhoP variant library, with: 10 µM Mg2+","reference: high Mg2+ state, higher = stronger signaling",fold induction,11.6
